Experimental data collected from several papers.
Every numbered part comes from another study and shows a few of its results, in no order.

Series 1
Target: Sal-like protein 4, full length isoform A (SALL4, Homo sapiens, UniProt Q9UJQ4, residues 1-1053)
UniProt Q9UJQ4, sequence (whole entry, looked up): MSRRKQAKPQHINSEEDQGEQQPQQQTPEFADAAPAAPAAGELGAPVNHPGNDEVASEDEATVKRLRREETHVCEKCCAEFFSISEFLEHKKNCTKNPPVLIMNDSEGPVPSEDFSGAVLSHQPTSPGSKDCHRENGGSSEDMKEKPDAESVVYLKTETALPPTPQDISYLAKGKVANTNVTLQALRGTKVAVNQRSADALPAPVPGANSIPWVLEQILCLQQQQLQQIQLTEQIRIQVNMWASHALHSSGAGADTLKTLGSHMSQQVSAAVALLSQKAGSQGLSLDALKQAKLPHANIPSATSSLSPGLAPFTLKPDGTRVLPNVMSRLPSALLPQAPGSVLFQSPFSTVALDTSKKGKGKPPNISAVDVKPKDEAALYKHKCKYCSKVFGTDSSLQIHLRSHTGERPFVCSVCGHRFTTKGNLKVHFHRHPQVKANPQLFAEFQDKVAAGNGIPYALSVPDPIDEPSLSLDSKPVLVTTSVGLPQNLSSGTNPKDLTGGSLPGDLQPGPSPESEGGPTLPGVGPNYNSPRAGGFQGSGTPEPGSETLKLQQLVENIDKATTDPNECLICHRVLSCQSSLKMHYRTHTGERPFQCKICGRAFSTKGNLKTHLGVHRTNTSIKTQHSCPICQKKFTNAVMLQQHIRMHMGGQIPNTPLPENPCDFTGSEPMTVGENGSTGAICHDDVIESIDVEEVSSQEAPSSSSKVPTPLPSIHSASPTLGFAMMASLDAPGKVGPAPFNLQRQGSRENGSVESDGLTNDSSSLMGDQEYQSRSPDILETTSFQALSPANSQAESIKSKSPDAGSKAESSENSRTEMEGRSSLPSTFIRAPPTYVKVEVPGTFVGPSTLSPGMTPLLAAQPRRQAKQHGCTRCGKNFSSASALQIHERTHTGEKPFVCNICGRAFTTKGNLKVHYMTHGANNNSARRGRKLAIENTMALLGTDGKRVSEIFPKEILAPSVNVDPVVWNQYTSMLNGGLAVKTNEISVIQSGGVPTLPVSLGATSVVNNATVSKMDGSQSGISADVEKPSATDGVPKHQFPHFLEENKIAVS
Method: universal PBM
Form: double-stranded DNA, one strand shown
Medium: in vitro
Tested at: 600 nM
Notes: 8-mer, flanks averaged, mean of replicates
Reading: higher = stronger binding
Quantity: E-score
AGCGTCAT: -0.0181
GCCATAGA: -0.0916
ATTGAACC: 0.0854
GTCTCGGA: -0.238
AAAGCACC: -0.137

Series 2
Target: Histone acetyltransferase KAT6A, winged helix 1, GST fusion (KAT6A, Homo sapiens, UniProt Q92794, residues 1-85)
Method: protein binding microarray
Form: double-stranded DNA, one strand shown
Medium: in vitro
Tested at: not given
Notes: 8-mer, flanks averaged, mean of 2 arrays, mostly near background
Baseline: not given
Reading: higher = stronger binding
Quantity: E-score
Construct (chain): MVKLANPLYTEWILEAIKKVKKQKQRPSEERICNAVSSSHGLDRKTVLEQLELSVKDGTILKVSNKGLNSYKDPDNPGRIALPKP
ATAGCGTC: 0.161
CAGGGCCA: -0.132
CGCTTCCA: 0.203
ACTCCGCC: 0.273
AACTAGAA: -0.126
CGGAATAA: 0.117
GCTGCCTA: -0.0525
AGTTCTAA: -0.0839

Series 3
Target: Max-binding protein MNT, bHLH-zipper, MAX partner unstated (MNT, Homo sapiens, UniProt Q99583, residues 220-300)
Method: protein-binding microarray
Form: double-stranded DNA, one strand shown
Medium: in vitro
Tested at: not given
Notes: k-mer, scored over probes, only values ≥0.25
Reading: higher = stronger binding
Quantity: E-score
Construct (chain): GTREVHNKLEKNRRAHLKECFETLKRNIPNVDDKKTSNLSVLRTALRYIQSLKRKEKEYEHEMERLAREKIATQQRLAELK
GTCCCCAC: 0.278
ATGCACTC: 0.27
AGCATGAC: 0.353
CGTGCCTA: 0.289
CATGCCCG: 0.345
AAGCGTGA: 0.341
CTCATGGA: 0.271

Other studies, line by line
PhoQ, residues 284 288 289 292 302 303 TLSLKA — fold induction (PhoP, residues 12 14 15 18 19 LHHVQ (Escherichia coli, UniProt P23836); Sort-seq, measured: YFP reporter; E. coli; PhoQ-PhoP variant library, with: 10 µM Mg2+; baseline: high Mg2+ state, higher = stronger signaling): 0.898

Some of these lines once more (series 3):
CGTGCCTA: 0.289
AGCATGAC: 0.353
